Measured values from different studies.
Values joined by “and” are separate records of one study, mostly repeats; a detail may differ.
Target: Platelet-derived growth factor receptor beta (PDGFRB, Homo sapiens, UniProt P09619)

C=CC(=O)N1Cc2nc(-c3cc(-c4cc(Cl)cnc4Cl)c(F)cc3F)n(-c3ccncn3)c2C1  inhibition (cell-free assay, inhibitor; 1 µM): 1.7%
CN1CCN(Cc2ccc(NC(=O)c3cccc(C#Cc4cnc(N)c5ncccc45)c3)cc2C(F)(F)F)CC1  remaining binding (cell-free assay, competition with immobilised ligand; 50 nM): 0.2%
Cc1cnc2nc1Nc1cccc(c1)COC/C=C/COCc1cc(ccc1OCCN1CCOCC1)N2  remaining binding (binding; 0.1 µM): 12%
CN1CCN(Cc2ccc(-c3ccc(CO[C@H]4CCC[C@@H]4NC(=O)c4cc(-c5cnn(C)c5)cnc4N)cc3)cc2)CC1  inhibition (enzyme activity, inhibitor; 0.1 µM): 4%
CNS(=O)(=O)Nc1nccc(Cc2c(C)c3ccc(Oc4ncccc4F)cc3oc2=O)c1F  remaining binding (cell-free assay, competition with immobilised ligand; 10 µM): 100%
C=CC(=O)N1CCc2ccc(-n3c(=O)ccc4cnc5ccc(-c6cnn(C)c6)cc5c43)cc21  remaining binding (KINOMEscan; 1 µM; reference: DMSO control): 66%
O=C=[N][Ru-4]123([n]4c5ccc(O)cc5c5c6c(c7cc(F)c[n+]1c7c54)C(=O)NC6=O)[S+]1CC[S+]2CC[S+]3CC1 (stereo not shown)  remaining activity (enzyme activity; 100 nM, human enzyme, added: 10 µM ATP; reference: untreated): 107%
CNc1ccc(-c2n[nH]c3c2CCN(C(=O)c2ccccc2)C3)cc1  remaining binding (cell-free assay, competition with immobilised ligand; 10 µM): 3.9%
COc1cc(OC)c(F)c(/C=C/c2cnc3ccn(S(=O)(=O)c4cn(CCF)cn4)c3n2)c1F  inhibition (10 nM): 0%
NC(=O)[C@@H](O)C[C@H]1CCc2sc3ncnc(O[C@H]4CC[C@H](N5CCOCC5)CC4)c3c21  inhibition (enzyme activity, inhibitor; 10 µM): 28%
C=CC(=O)Nc1cccc(-c2cnc3[nH]cc(C(=O)NC(C)(C)C)c3n2)c1  inhibition (kinase activity; 0.1 µM): 15% and 23%
CN1CC[C@@H](COc2cnc(C#N)cc2-c2ccn3nc(NC(=O)C4CC4)cc3c2)C1  inhibition (enzyme activity, inhibitor; 1 µM): 32%
CCn1cc(C(=O)O)c(=O)c2c(N)c(F)c(NC3CCCCC3)cc21  inhibition (kinase activity; 0.1 µM, added: ATP at Km): -7.4%
COc1c(Cl)cccc1Nc1c(-c2ccncc2C#C[C@@]2(C)CCCN2C(=O)/C=C/CN(C)C)[nH]c2c1C(=O)NCC2  remaining binding (cell-free assay, competition with immobilised ligand; 3 µM): 86%
COc1cc(Nc2nccc(-c3cnn4nc(OC)ccc34)n2)cc(C(F)(F)F)c1  remaining binding (binding, competition with immobilised ligand; 1 µM): 85%
CC(C)=CC1OC(C)(C)C2C=C3C(=O)C(Cl)=CC(O)C3C3C(O)C4OC4C(=O)C132 (stereo not shown)  remaining binding (cell-free assay, competition with immobilised ligand; 10 µM): 100%
CCN1CCN(Cc2ccc(C(=O)Nc3ccc(C)c(NCc4cnc5[nH]ccc5c4OC)c3)cc2C(F)(F)F)CC1  remaining binding (binding, competition with immobilised ligand; 1 µM): 0%
Cc1cccc(O[C@H]2CCC[C@@H](C(C)CNCc3ccncc3)C2)c1 (relative stereo)  inhibition (enzyme activity, inhibitor; 1 µM): 3%
CNC(=O)C[C@H](Cc1ccc(C#N)cc1)NC(=O)c1cc(-c2ccc(CN[C@H](C)c3ccc(C)cc3)o2)ccc1Cl  activity vs control (enzyme activity, inhibitor; 1 µM): 110%
Nc1ncc2c(n1)-c1c([nH]c3ccc(C4=CCOCC4)cc13)CCC2  remaining binding (binding, competition with immobilised ligand; 1 µM): 100%
CCN1CCN(Cc2ccc(NC(=O)c3ccc(C)c(NC(=O)c4cncc(-c5cccs5)c4)c3)cc2C(F)(F)F)CC1  remaining binding (binding, competition with immobilised ligand; 1 µM): 0.05%
O=C(O)CCC(=O)c1cccc(NS(=O)(=O)c2c[nH]c3ncccc23)c1  remaining activity (kinase activity, radiometric; 10 µM): 80%
COC(=O)[C@@]1(C)C=C(C(=O)Nc2cccc(C(=O)Nc3ccc(Nc4nccc(-c5cccnc5)n4)c(C)c3)c2)C(=O)CC1  remaining binding (binding, competition with immobilised ligand; 1 µM): 71%
Cc1cc(-c2n[nH]cc2C(=O)Nc2ccc(C)c(F)c2)ccn1  remaining binding (cell-free assay, competition with immobilised ligand; 10 µM): 19%
O=C(Cc1ccc(OCc2ccccc2)cc1)NC1(C(=O)O)CCN(C(=O)c2ccc(-c3cccc(Cl)c3)cc2)CC1  activity vs control (enzyme activity, inhibitor; 10 µM): 114%

Repeated from above:
C=CC(=O)N1CCc2ccc(-n3c(=O)ccc4cnc5ccc(-c6cnn(C)c6)cc5c43)cc21  remaining binding (KINOMEscan; 1 µM; reference: DMSO control): 66%
CN1CC[C@@H](COc2cnc(C#N)cc2-c2ccn3nc(NC(=O)C4CC4)cc3c2)C1  inhibition (enzyme activity, inhibitor; 1 µM): 32%
Cc1cccc(O[C@H]2CCC[C@@H](C(C)CNCc3ccncc3)C2)c1 (relative stereo)  inhibition (enzyme activity, inhibitor; 1 µM): 3%
